Assay results pooled from the literature.
± marks the error that the study gave.
Cell line: MCF7

`CC(=O)[O-].O.O.[O-]c1ccc(Br)cc1C=NCCN1CCOCC1.[Zn+2]` gave an IC50 of 35.7 µg/mL (cell viability, MTT; 72 h).
`CC(C)C[C@@H]1NC(=O)[C@H](Cc2c[nH]c3ccccc23)NC(=O)CNC(=O)[C@@H]2CCCN2C(=O)[C@H]2CCCN2C(=O)[C@H]([C@@H](C)O)NC1=O` gave an IC50 of greater than 100 µM (cell growth or viability, ATP luminescence; 72 h).
The IC50 of `CC(C)=CCc1c(O)cc2oc3cc(O)c(O)c(CC=C(C)C)c3c(=O)c2c1O` is reported as 5.33 µM (cell growth or viability; 48 h).
The IC50 of `Clc1ccc2ccc3[n+](c2c1)[Ir-3]12([c]4ccccc4-3)([c]3ccccc3-c3ccc4ccc(Cl)cc4[n+]31)[n+]1ccccc1-c1cccc[n+]12.F[P-](F)(F)(F)(F)F` is reported as 0.68 ± 0.13 µM (cell growth, MTT; 72 h).
`[Cl][Pd-2]1([Cl])[N+](=Cc2ccc[nH]2)Cc2cccc[n+]21` has an IC50 of 64.5 µg/mL (cell growth or viability, MTT; 24 h).
`C=CC(=C)CC[C@]1(C)[C@H](C)C[C@H](OC(=O)CCCCCCC)[C@@]23C(=C[C@H](OC(C)=O)C[C@@H]12)[C@@H](OC(C)=O)O[C@H]3OC(C)=O` gave an IC50 of 6.39 µM (cell growth or viability, SRB).
With `CCC(C(=O)O)C1CCC(C)C(C(C)C(O)C(C)C(=O)C(CC)C2OC3(C=CC(NCc4cn(C56CC7CC(CC(C7)C5)C6)nn4)C4(CCC(C)(C5CCC(O)(CC)C(C)O5)O4)O3)C(C)CC2C)O1` (stereo not drawn) the IC50 was 0.1 µM (cell growth or viability, resazurin; 72 h).
`CC1(C)CC2C3=CCC4C5(C)CCC(O)C(C)(CO)C5CCC4(C)C3(C)CC(O)C2(CO)C(O)C1O` (stereo not drawn) has an IC50 of greater than 80 µM (cell growth or viability, CCK-8; 48 h).
`O=C(CCc1nc2cc(Cl)ccc2[nH]c1=O)Nc1ccc(Cl)cc1` gave an IC50 of 54.7 µM (cell growth or viability, MTT).
The IC50 of `CSc1nc(Nc2ccc(/C(C)=N/NC(=O)c3ccc([N+](=O)[O-])cc3)cc2)c(C#N)c(-c2ccccc2)n1` is reported as 14.3 µM (cell growth or viability, MTT; 48 h).
The IC50 of `COc1cc(C2COc3cc(O)cc(O)c3C2=NO)c(OC)cc1O` (stereo not drawn) is reported as 110 µM (cell growth or viability, MTT; 72 h).
For `N=C(N)NCCC[C@H](N)C(=O)N1CCC[C@H]1C(=O)N[C@@H](Cc1ccc(O)cc1)C(N)=O`, the IC50 was greater than 100 µM.
With `CC(C)(O)[C@@H]1CC[C@](C)([C@H]2CC[C@]3(C)[C@@H]2CC[C@@H]2[C@@]4(C)CCC(=O)C(C)(C)[C@@H]4CC[C@]23C)O1` the IC50 was greater than 100 µM (cell growth or viability, SRB).
`COc1ccc(CNC[C@@](O)(COCc2ccc(OC)cc2)[C@@H]2CC[C@@H](C)C[C@H]2OCc2ccc(OC)cc2)cc1` has an IC50 of 1.6 µM (cell growth or viability, MTT; 72 h).
`COc1ccc2cc3[n+](cc2c1OCc1cn(Cc2c(Cl)cccc2Cl)nn1)CCc1cc2c(cc1-3)OCO2` gave an IC50 of 73.6 µM (cell growth or viability, MTT).
With `Cc1c(C)n(-c2c(C(C)C)cccc2C(C)C)c(=[Se])n1-c1c(C(C)C)cccc1C(C)C.[Cl][Au]` the IC50 was 3.5 µM (cell growth or viability, MTT; 72 h).
`CC(C)(C)C12CC(CN3CCN(C(c4ccccc4)c4ccc(Cl)cc4)CC3)(C1)C2` (stereo not drawn) gave an IC50 of 24.5 µM (cell growth or viability, resazurin).
With `CCCCCCCCCCCCCCCOC(=O)/C=C/c1cccc(O)c1` the IC50 was 1.1 ± 0.2 µg/mL (cell viability, MTT; 48 h, serum-free medium).
With `c1ccc(-c2cc(-c3ccc(-n4cc(-c5ccc(-c6cccs6)s5)nn4)cc3)cc(-c3ccccn3)n2)nc1` the IC50 was 1.79 µM (cell growth or viability, MTS; 72 h).
With `CC(=O)[O][Pt]([Cl])([Cl])[O]C(=O)CCCc1ccccc1.N.N` the IC50 was 3.43 ± 0.14 µM (cytotoxicity; 72 h).
The IC50 of `O=C(N/C(=C/c1ccc([N+](=O)[O-])cc1)c1nc2ccccc2c(=O)o1)c1ccccc1` is reported as 25.4 µM (cell growth or viability, MTT; 48 h).
`COc1cc(/C=C/C=O)ccc1O` has an IC50 of greater than 30 µM (cell growth or viability, MTT).
`CCCCCC(C)n1c(-c2cccnc2)nc(-c2ccc(C)cc2)c1-c1ccc(C)cc1` (stereo not drawn) has an IC50 of greater than 100 µM (cell growth or viability, SRB; 48 h).
`CCOC(=O)CN1C=C(c2cc(Br)ccc2O)Nc2ccccc21` has an IC50 of 62.4 µM (cell growth or viability, MTT; 48 h).
For `CCN(CC)c1ccc2c(c1)[O][Pd]([CH2]C#N)[N](Cc1ccccc1)c1ncccc1N=C2`, the IC50 was 27.7 µM (cell growth or viability, MTT; 48 h).
With `CS/C(=N/N=C(\C)c1ccc(S(=O)(=O)N2CCC(C)CC2)cc1)SCc1ccccc1` the IC50 was greater than 30 µM (cell growth, MTT).
For `CC/C(=C(\c1ccccc1)c1ccc(OCCN(C)CCCCC(=O)NCCc2c[nH]c3ccc(OC)cc23)cc1)c1ccccc1`, the IC50 was 2.1 µM (cell survival, MTT; day 9, dosed days 2, 4, 7).
`O=C(Cc1ccccc1)NC(=S)n1c(-c2ccccc2)nc2ccccc21` has an IC50 of 8.32 µM (cell growth or viability, MTT; 48 h).
`Oc1ccc2c(c1)[O][Pt-2]1([Cl])[N+](=C2)CC[NH+]1c1ccccc1` (stereo not drawn) has an IC50 of 76.5 µM (cell growth or viability, MTT).
`COc1ccc2cc3[n+](cc2c1OCc1cn(Cc2ccc(C#N)cc2)nn1)CCc1cc2c(cc1-3)OCO2` has an IC50 of 174 µM (cell growth or viability, MTT).
`CCCCCCCCC=CCCCCCCCCn1c(-c2cccnc2)nc(-c2ccc(C)cc2)c1-c1ccc(C)cc1` gave an IC50 of greater than 100 µM (cell growth or viability, SRB; 48 h).
The IC50 of `[Cl][Pd-2]1([Cl])[N+](=P(c2ccccc2)(c2ccccc2)c2ccccc2)Cc2cccc[n+]21` is reported as 25 µM (cell growth or viability, MTT; 74 h).
`CC(=O)N[C@@H]1[C@@H](OC(C)=O)[C@H](OC(C)=O)[C@@H](COC(C)=O)O[C@H]1Sc1nnc(-c2cc3ccccc3[nH]2)n1-c1ccc(Cl)cc1` has an IC50 of 12.7 µM (cell growth or viability, MTT).
`CCN(CC)CCO/N=C1/C=C2CCC3C(CC[C@]4(C)/C(=C/c5ccccn5)CCC34)[C@@]2(C)CC1` (stereo partly drawn) has an IC50 of greater than 100 µM (cell growth or viability, MTT; 72 h).
For `CCCCCCCCC=CCCCCCCCC(=O)OC(COC(=O)Cc1c(C)n(C(=O)c2ccc(Cl)cc2)c2ccc(OC)cc12)COP(=O)([O-])OCC[N+](C)(C)C` (stereo not drawn), the IC50 was 58.2 µM (cell growth or viability, SRB; 72 h).
The IC50 of `CC1=C2[O][Ru-]([Cl])[O+]=C2C=CN1CCCN1C=CC2=[O+][Ru-]([Cl])[O]C2=C1C.Cc1ccc(C(C)C)cc1.Cc1ccc(C(C)C)cc1` is reported as greater than 20 µM (cell growth or viability, crystal violet; 96 h).
The IC50 of `O=C1N(Cc2cn(CC/C(=C(\c3ccccc3)c3ccc(OCCO)cc3)c3ccccc3)nn2)c2ccccc2C12OCCO2` is reported as greater than 100 µM (cell growth or viability, MTT).
`CCCCCCCCCCOc1c(O)cc(C(=O)O[C@@H]2Cc3c(O)cc(O)cc3O[C@@H]2c2cc(O)c(O)c(O)c2)cc1O` gave an IC50 of 99 µM (cell growth or viability, CCK-8; 24 h).
`O=[C]=[Re-2]1(=[C]=O)(=[C]=O)([O]C(=O)c2cccnc2)[n+]2ccc(-c3ccccc3)c3ccc4c(-c5ccccc5)cc[n+]1c4c32` has an IC50 of 3.57 µM (cell growth or viability, resazurin; 72 h).
`O=C(NCCCNc1n[n+]([O-])c2ccccc2[n+]1[O-])C(F)(F)F` has an IC50 of 29.1 ± 13.5 µM (cytotoxicity, MTT; 10% FBS medium; 6 h + 18 h, hypoxia 3% O2).
The IC50 of `C[C@@H]1CC[C@@H]([C@@](O)(CNCc2cccc(F)c2)COCc2ccccc2)[C@H](OCc2ccccc2)C1` is reported as 0.74 µM (cell growth or viability, MTT; 72 h).
For `O=C(CSc1nc(-c2ccccc2)n[nH]1)N1CCC(=C2c3ncccc3CCc3cc(Cl)cc(Br)c32)CC1`, the IC50 was 80 µM (cell growth or viability, SRB).
With `CC(C)(C)c1cc2c(O)c(c1)Cc1cc(C(C)(C)C)cc(c1OCC(=O)Nc1cncc3ccccc13)Cc1cc(C(C)(C)C)cc(c1O)Cc1cc(C(C)(C)C)cc(c1OCC(=O)Nc1cncc3ccccc13)COC2` the IC50 was 3.7 µM (cell growth or viability, MTT; 72 h).
With `C/C(=N\NC(N)=S)c1c(O)c2ccccc2oc1=O` the IC50 was 8.1 µM (cell growth or viability, MTT; 48 h).
The IC50 of `COc1cc(/C=N/NC(=O)c2cc3cc(Nc4nccc(-c5cccnc5)n4)ccc3[nH]2)cc(OC)c1` is reported as 2.84 µM (cell growth or viability, MTT; 48 h).
The IC50 of `CC1=CC(C(F)(F)F)=[O+][Pt-2]([NH3+])([NH3+])[O]1.CC1=CC(C(F)(F)F)=[O+][Pt-2]([NH3+])([NH3+])[O]1.O=S(=O)([O-])[O-]` (stereo not drawn) is reported as 15 µM (cell growth or viability, MTT).
For `CC1=NN(C2=NC(=O)CS2)C(c2ccccc2)C1` (stereo not drawn), the IC50 was 8.3 µM (cell growth or viability, LDH).
`Cc1c(C)c(C)[c-](C)c1C.O=Cc1ccc(-c2[c-]cccc2)nc1.[Cl-].[Ir+3]` has an IC50 of 6.5 ± 0.3 µM (SRB; 24 h, 72 h recovery).
`C=CC(OC(C)=O)c1cc(OC)cc(OC)c1` (stereo not drawn) has an IC50 of greater than 50 µM (MTT; 24 h).
`NS(=O)(=O)c1ccc(/N=N/c2ccc(O)c(/C=N/c3cc(Cl)ccc3O)c2)cc1` gave an IC50 of 5.07 µM (cell growth or viability, MTT; 48 h).
`C/C(=N\N=C(SCc1ccccc1)SCc1ccccc1)c1ccc(S(=O)(=O)N2CCC(C)CC2)cc1` gave an IC50 of 32.1 µM (cell growth or viability, MTT).
`CC1(C)CC(=O)C2=C(C1)OC(N)=C(C#N)C2c1ccccc1` (stereo not drawn) has an IC50 of 334 µM (cell growth or viability, MTT; 24 h).
The IC50 of `CCN1CCC2(CC1)C/C(=N\NC(=O)Nc1ccccc1)c1ccccc1O2` is reported as 6.03 µM (cell growth or viability, MTT; 48 h).
The IC50 of `CSc1nc(Nc2cccc(/C(C)=N/NC(=O)c3ccccc3O)c2)c(C#N)c(-c2ccccc2)n1` is reported as 30.1 µM (cell growth or viability, MTT; 48 h).
